Experimental data from different studies.
A part holds a random share of what one study measured. Changes are numbered by the printed parent chain. In brackets after ≈: the same amount, converted by molar mass.
Sequence of UniProt P15056 (whole entry, looked up): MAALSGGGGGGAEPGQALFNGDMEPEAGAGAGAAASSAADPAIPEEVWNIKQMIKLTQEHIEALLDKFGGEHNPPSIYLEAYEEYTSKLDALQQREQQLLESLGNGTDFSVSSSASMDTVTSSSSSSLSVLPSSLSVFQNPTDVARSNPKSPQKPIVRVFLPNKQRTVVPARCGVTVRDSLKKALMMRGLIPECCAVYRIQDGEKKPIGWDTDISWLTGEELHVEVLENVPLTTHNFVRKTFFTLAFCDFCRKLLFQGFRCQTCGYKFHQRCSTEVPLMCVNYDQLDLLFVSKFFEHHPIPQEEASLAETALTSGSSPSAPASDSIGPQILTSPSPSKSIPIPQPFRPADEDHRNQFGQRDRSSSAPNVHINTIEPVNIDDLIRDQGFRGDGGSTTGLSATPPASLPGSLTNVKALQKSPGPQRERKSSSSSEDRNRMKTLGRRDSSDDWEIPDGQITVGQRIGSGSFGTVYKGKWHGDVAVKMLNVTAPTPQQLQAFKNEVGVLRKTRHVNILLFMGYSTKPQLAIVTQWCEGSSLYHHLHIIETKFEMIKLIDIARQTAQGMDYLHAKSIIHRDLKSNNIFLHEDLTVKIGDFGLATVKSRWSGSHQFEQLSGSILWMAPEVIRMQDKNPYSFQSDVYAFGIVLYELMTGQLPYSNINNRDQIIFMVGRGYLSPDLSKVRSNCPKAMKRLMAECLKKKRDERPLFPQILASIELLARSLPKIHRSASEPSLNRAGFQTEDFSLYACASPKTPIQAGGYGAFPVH
Sequence of UniProt Q8TDC3 (whole entry, looked up): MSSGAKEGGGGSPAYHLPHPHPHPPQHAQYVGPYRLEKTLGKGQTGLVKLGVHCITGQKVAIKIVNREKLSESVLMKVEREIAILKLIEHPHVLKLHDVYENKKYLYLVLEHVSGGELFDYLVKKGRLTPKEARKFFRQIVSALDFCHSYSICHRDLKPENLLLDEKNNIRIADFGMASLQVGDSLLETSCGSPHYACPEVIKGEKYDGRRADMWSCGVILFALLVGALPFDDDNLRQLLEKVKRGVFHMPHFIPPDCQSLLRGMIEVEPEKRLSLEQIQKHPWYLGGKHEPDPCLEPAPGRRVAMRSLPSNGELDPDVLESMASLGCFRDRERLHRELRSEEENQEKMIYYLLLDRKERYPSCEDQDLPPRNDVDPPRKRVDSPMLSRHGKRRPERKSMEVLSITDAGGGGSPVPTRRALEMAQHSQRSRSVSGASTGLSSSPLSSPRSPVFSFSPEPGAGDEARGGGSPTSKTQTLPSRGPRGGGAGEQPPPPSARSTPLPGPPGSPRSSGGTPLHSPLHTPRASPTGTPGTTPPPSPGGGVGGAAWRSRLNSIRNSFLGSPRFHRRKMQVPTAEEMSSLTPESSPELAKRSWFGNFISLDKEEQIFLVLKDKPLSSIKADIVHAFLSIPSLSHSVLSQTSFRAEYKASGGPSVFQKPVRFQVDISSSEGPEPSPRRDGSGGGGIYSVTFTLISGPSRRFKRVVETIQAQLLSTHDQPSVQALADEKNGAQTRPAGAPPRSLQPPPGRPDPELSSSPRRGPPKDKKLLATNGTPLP
Sequence of UniProt Q9BRS2 (whole entry, looked up): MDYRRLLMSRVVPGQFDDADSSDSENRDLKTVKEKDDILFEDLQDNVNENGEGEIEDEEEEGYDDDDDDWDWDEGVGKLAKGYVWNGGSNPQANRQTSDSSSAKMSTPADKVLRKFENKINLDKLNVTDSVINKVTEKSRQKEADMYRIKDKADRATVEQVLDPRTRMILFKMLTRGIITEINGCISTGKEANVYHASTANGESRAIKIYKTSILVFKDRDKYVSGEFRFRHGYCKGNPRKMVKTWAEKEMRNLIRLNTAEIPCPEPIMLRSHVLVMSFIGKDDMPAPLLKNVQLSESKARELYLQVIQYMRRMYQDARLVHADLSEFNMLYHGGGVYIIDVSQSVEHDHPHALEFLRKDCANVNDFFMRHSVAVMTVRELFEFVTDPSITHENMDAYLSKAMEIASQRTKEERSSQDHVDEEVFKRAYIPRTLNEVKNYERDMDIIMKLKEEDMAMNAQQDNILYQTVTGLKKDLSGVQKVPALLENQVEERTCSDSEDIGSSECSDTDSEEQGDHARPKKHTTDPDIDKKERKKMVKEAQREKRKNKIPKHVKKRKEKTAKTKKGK
Sequence of UniProt Q9BQI3 (whole entry, looked up): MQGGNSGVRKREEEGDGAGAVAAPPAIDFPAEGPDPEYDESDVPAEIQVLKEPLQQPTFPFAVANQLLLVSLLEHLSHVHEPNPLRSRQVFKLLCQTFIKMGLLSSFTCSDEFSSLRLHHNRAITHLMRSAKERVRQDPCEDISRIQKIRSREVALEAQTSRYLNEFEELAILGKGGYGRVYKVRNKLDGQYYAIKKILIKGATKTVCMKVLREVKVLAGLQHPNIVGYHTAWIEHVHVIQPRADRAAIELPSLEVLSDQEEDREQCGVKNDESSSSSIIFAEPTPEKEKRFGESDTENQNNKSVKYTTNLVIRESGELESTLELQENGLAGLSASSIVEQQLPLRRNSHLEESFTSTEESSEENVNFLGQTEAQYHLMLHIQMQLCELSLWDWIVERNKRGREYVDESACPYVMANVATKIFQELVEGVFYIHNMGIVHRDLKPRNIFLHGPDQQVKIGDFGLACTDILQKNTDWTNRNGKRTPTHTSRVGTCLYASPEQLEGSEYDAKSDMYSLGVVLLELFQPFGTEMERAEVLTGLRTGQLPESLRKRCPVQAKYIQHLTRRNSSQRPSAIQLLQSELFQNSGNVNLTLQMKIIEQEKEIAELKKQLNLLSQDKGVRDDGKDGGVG
Sequence of UniProt Q9UIK4 (whole entry, looked up): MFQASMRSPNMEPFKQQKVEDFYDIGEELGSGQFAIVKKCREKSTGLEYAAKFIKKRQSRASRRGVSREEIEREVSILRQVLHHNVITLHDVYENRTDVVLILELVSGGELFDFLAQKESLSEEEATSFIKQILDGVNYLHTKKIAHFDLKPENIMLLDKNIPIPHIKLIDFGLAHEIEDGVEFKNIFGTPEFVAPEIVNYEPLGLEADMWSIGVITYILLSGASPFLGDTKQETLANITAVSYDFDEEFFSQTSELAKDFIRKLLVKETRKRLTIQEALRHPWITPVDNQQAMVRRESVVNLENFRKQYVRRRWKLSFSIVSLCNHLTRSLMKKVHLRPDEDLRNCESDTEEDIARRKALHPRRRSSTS
Sequence of UniProt P42336 (whole entry, unmodified, looked up): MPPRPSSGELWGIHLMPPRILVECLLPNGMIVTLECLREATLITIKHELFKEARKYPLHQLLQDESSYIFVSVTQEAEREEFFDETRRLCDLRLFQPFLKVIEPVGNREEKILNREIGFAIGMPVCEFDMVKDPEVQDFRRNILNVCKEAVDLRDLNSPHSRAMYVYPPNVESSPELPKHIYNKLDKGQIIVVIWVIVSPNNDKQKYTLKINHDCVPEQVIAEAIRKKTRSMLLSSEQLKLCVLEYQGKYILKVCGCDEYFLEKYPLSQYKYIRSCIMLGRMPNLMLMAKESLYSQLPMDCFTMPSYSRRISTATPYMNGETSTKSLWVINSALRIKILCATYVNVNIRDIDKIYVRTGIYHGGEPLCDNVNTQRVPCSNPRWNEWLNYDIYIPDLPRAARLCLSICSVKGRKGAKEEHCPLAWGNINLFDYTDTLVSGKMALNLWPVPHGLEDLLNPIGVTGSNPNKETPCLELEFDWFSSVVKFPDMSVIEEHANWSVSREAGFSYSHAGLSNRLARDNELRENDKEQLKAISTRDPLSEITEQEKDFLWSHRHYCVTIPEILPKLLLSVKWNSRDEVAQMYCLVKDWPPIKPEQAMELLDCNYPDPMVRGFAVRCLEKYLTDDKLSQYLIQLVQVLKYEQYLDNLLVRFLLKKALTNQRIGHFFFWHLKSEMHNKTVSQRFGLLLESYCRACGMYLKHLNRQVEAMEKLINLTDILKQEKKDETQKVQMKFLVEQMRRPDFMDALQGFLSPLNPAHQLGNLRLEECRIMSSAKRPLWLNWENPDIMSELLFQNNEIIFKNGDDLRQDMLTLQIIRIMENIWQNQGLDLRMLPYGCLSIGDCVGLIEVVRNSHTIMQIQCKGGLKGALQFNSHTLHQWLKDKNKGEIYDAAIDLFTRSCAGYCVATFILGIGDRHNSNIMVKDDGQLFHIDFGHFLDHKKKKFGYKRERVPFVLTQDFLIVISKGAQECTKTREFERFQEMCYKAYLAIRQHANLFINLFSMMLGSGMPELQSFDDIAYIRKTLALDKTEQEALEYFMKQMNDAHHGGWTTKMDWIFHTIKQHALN

Study 1
Target: inorganic phosphate, free oxyanion
Method: microfluidic competitive inhibition
Medium: in vitro, cell-free expressed
Tested at: not given
Notes: derived from inhibition constants, unchanged parent 615000 nM
Direction: lower = stronger binding
Starting sequence: PafA, mature enzyme, eGFP fusion (Elizabethkingia meningoseptica, UniProt Q9KJX5); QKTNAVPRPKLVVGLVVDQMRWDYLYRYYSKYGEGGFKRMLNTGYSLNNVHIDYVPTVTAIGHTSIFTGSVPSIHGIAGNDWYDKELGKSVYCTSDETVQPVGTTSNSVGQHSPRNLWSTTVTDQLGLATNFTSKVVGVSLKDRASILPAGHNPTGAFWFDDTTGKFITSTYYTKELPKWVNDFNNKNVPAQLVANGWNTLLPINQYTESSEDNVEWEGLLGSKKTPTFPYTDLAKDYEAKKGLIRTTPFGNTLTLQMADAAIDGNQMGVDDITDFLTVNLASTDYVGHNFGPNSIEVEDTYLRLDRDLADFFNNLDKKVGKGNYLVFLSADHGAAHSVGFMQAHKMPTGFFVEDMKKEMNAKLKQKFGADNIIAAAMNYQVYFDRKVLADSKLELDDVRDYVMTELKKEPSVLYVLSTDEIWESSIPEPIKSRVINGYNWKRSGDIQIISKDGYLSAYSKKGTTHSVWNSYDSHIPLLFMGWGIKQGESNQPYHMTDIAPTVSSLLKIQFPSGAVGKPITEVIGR
For `S505V`, “phosphate dissociation constant” read 632 µM.
For `N185V`, “phosphate dissociation constant” read 475 µM.
For `S471G`, “phosphate dissociation constant” read 533 µM.
For `L234V`, “phosphate dissociation constant” read 608 µM.
`F511G` — result for “phosphate dissociation constant”: 504 µM.
`V6A` — result for “phosphate dissociation constant”: 598 µM.
For `S474V`, “phosphate dissociation constant” read 243 µM.
Under “phosphate dissociation constant”, `V55G` is recorded as 208 µM.
For `F313V`, “phosphate dissociation constant” read 635 µM.
`I427V` — result for “phosphate dissociation constant”: 678 µM.
Under “phosphate dissociation constant”, `D23V` is recorded as 275 µM.
Under “phosphate dissociation constant”, `R443V` is recorded as 515 µM.
`S146V` — result for “phosphate dissociation constant”: 416 µM.
`K175V`: “phosphate dissociation constant” 659 µM.
`E299G` — result for “phosphate dissociation constant”: 481 µM.
For `W198G`, “phosphate dissociation constant” read 300 µM.
`T248V`: “phosphate dissociation constant” 540 µM.
Under “phosphate dissociation constant”, `K89G` is recorded as 774 µM.
For `L221G`, “phosphate dissociation constant” read 211 µM.

Study 2
SMILES: Cn1cncc1[C@](O)(COc1ccc(C#N)cc1-c1ccc(OC(F)(F)F)cc1)c1ccc(C#N)cc1
Observed: cell-free assay
Method: competition with immobilised ligand
Tested at: 1 µM
Ephrin type-A receptor 2 (EPHA2, Homo sapiens, UniProt P29317) — remaining binding: 62%.
For Serine/threonine-protein kinase RIO1 (RIOK1, Homo sapiens, UniProt Q9BRS2): remaining binding read 72%.
It gave 82% for remaining binding (Death-associated protein kinase 2 (DAPK2, Homo sapiens, UniProt Q9UIK4)).
It gave 100% for remaining binding (Eukaryotic translation initiation factor 2-alpha kinase 1 (EIF2AK1, Homo sapiens, UniProt Q9BQI3)).
Epidermal growth factor receptor (EGFR, Homo sapiens, UniProt P00533, del752-759) — remaining binding: 78%.
The remaining binding was 100% (Phosphatidylinositol 4,5-bisphosphate 3-kinase catalytic subunit alpha isoform (PIK3CA, Homo sapiens, UniProt P42336, M1043I)).
For Serine/threonine-protein kinase BRSK1 (BRSK1, Homo sapiens, UniProt Q8TDC3): remaining binding read 73%.
The remaining binding was 84% (Serine/threonine-protein kinase B-raf (BRAF, Homo sapiens, UniProt P15056)).

Study 3
Partner: H2BC15 (Homo sapiens, UniProt Q99877)
Method: cross-linking MS
Notes: hits only
`HMGA1 (Homo sapiens, UniProt P17096)`: interaction screen “cross-linked”.
Under interaction screen, `Histone H2B type 1-C/E/F/G/I (Homo sapiens, UniProt P62807)` is recorded as “cross-linked”.
`H2BC18 (Homo sapiens, UniProt Q5QNW6)` — result for interaction screen: “cross-linked”.
For `H2AC7 (Homo sapiens, UniProt P20671)`, interaction screen read “cross-linked”.
For `H2BC5 (Homo sapiens, UniProt P58876)`, interaction screen read “cross-linked”.
For `H2AC12 (Homo sapiens, UniProt Q96KK5)`, interaction screen read “cross-linked”.
`H2AX (Homo sapiens, UniProt P16104)` — result for interaction screen: “cross-linked”.
`H2AC11 (Homo sapiens, UniProt P0C0S8)` — result for interaction screen: “cross-linked”.

Study 4
Compound: CCCCC[C@@H](O)CC(=O)N[C@H]1COC(=O)[C@H](CO)NC(=O)CNC(=O)[C@H]([C@@H](C)O)NC(=O)[C@H](Cc2ccccc2)NC(=O)[C@@H](Cc2c[nH]c3ccccc23)NC(=O)[C@@H]([C@H](C)O)NC(=O)[C@H](CC(N)=O)NC(=O)[C@@H]([C@H](C)O)NC(=O)[C@H](CC(C)C)NC(=O)[C@@H](Cc2c[nH]c3ccccc23)N(C)C(=O)CNC(=O)[C@H](CO)NC(=O)[C@@H](CO)NC1=O
Organism: Staphylococcus aureus
Strain: USA300
with: menaquinone 64 µg/mL — MIC: greater than 64 µg/mL.
with: ubiquinone 4 µg/mL — MIC: 8 µg/mL (≈ 4.79 µM).
It gave greater than 64 µg/mL for MIC (with: menaquinone 8 µg/mL).
For with: ubiquinone 0 µg/mL: MIC read 8 µg/mL (≈ 4.79 µM).

Some of these lines once more (study 2):
It gave 82% for remaining binding (Death-associated protein kinase 2 (DAPK2, Homo sapiens, UniProt Q9UIK4)).
Ephrin type-A receptor 2 (EPHA2, Homo sapiens, UniProt P29317) — remaining binding: 62%.
The remaining binding was 84% (Serine/threonine-protein kinase B-raf (BRAF, Homo sapiens, UniProt P15056)).
The remaining binding was 100% (Phosphatidylinositol 4,5-bisphosphate 3-kinase catalytic subunit alpha isoform (PIK3CA, Homo sapiens, UniProt P42336, M1043I)).
